Measured values collected from several papers.
Protocols differ between the studies behind these lines. ± gives the spread as reported.
Cell line: HCT-15

`Cc1ccc(C(C)C)cc1.Cc1ccc(C(C)C)cc1.Cc1ccc(C(C)C)cc1.Cc1ccc(C(C)C)cc1.O=S(=O)(O)C(F)(F)F.O=S(=O)(O)C(F)(F)F.O=S(=O)(O)C(F)(F)F.O=S(=O)(O)C(F)(F)F.c1ccc2c3c4ccccc4c(c2c1)-c1cn(nn1)-c1cc[n+](cc1)[Ru-]1[O]C2=[O+][Ru-]([O]C2=[O+]1)[n+]1ccc(cc1)-n1cc(nn1)-c1c2ccccc2c(c2ccccc12)-c1cn(nn1)-c1cc[n+](cc1)[Ru-]1[O]C2=[O+][Ru-]([O]C2=[O+]1)[n+]1ccc(cc1)-n1cc-3nn1` has an IC50 of over 20 µM (cell growth or viability, MTT; 24 h).
For `Cc1ccc([N+](=O)[O-])cc1S(=O)(=O)N(C)/N=C/c1cnc2ccc(Br)cn12`, the IC50 was 0.008 µM (cell viability, MTS).
For `CC(=O)Oc1ccccc1C(=O)[O][Pt]([NH2])([NH2])([Cl])([Cl])[O]C(C)=O`, the IC50 was 4.53 µM (cell growth or viability, MTT; 72 h).
`CCCC[N+]1=c2cc3c4cc2[O][Mn-2]1(=[C]=O)(=[C]=O)(=[C]=O)[n+]1ccc(cc1)C(=O)OCCOCCOC(=O)c1cc[n+](cc1)[Mn-2](=[C]=O)(=[C]=O)(=[C]=O)([O]3)[N+]=4CCCC` gave an IC50 of over 50 µM (cell growth, MTT; 48 h, LED light photolysis 1 h).
For `COc1cc(S(=O)(=O)Oc2ccc3[nH]c(C)cc3c2)cc(OC)c1OC`, the IC50 was 0.00371 µM (cell growth or viability; 72 h).
The IC50 of `CNS(=O)(=O)Nc1nccc(Cc2c(C)c3ccc(Oc4ncccc4F)cc3oc2=O)c1F` is reported as over 1 µM (cell viability; 7 days).
The IC50 of `Cc1ccc(C(C)C)cc1.Cc1ccc(C(C)C)cc1.Cc1ccc(C(C)C)cc1.Cc1ccc(C(C)C)cc1.O=S(=O)(O)C(F)(F)F.O=S(=O)(O)C(F)(F)F.O=S(=O)(O)C(F)(F)F.O=S(=O)(O)C(F)(F)F.c1ccc2c3c4ccccc4c(c2c1)-c1cn(nn1)-c1cc[n+](cc1)[Ru-]1[O]c2c4ccccc4c4c5c(c6ccccc6c(c25)=[O+]1)=[O+][Ru-]([O]4)[n+]1ccc(cc1)-n1cc(nn1)-c1c2ccccc2c(c2ccccc12)-c1cn(nn1)-c1cc[n+](cc1)[Ru-]1[O]c2c4ccccc4c4c5c(c6ccccc6c(c25)=[O+]1)=[O+][Ru-]([O]4)[n+]1ccc(cc1)-n1cc-3nn1` is reported as 7.1 ± 0.74 µM (cell growth, MTT; 24 h, 20 µM preincubated in medium 0 h at 37 °C).
The IC50 of `CCCC[N+]1=c2cc3c4cc2[O][Mn-2]1(=[C]=O)(=[C]=O)(=[C]=O)[n+]1ccc(cc1)C(=O)OCCOC(=O)c1cc[n+](cc1)[Mn-2](=[C]=O)(=[C]=O)(=[C]=O)([O]3)[N+]=4CCCC` is reported as 3.99 ± 0.63 µM (cell growth, MTT; 48 h, LED light photolysis 1 h).
`Cn1ncc(-c2ccc3c(=O)[nH]nc(CN)c3c2)c1-c1c(F)c(Cl)cc(OC2CC2)c1C#N` gave an IC50 of 3.7 µM (cell viability, inhibitor, CellTiter-Glo; 120 h, baseline-subtracted).
With `O=[C]=[Mn-2]12(=[C]=O)(=[C]=O)[O]c3cc4c(cc3=[N+]1CCc1ccccc1)[O][Mn-2](=[C]=O)(=[C]=O)(=[C]=O)([N+]=4CCc1ccccc1)[n+]1ccc(cc1)C(=O)OCCOC(=O)c1cc[n+]2cc1` the IC50 was 2.03 ± 0.27 µM (cell growth, MTT; 48 h, LED light photolysis 1 h).
`CC(=O)[O][Pt]([NH2])([NH2])([Cl])([Cl])[O]C(=O)C(C)c1ccc(CC(C)C)cc1` (centres unmarked) gave an IC50 of 1.98 µM (cell growth or viability, MTT; 72 h).

Some of these lines once more:
For `Cc1ccc([N+](=O)[O-])cc1S(=O)(=O)N(C)/N=C/c1cnc2ccc(Br)cn12`, the IC50 was 0.008 µM (cell viability, MTS).
With `O=[C]=[Mn-2]12(=[C]=O)(=[C]=O)[O]c3cc4c(cc3=[N+]1CCc1ccccc1)[O][Mn-2](=[C]=O)(=[C]=O)(=[C]=O)([N+]=4CCc1ccccc1)[n+]1ccc(cc1)C(=O)OCCOC(=O)c1cc[n+]2cc1` the IC50 was 2.03 ± 0.27 µM (cell growth, MTT; 48 h, LED light photolysis 1 h).
